# Measurements of several laboratories.
# Numbered parts are unrelated; each lists some results of a single study. Substitutions count along the parent as printed.

# Series 1 — technique: EMSA with sequencing; molecule type: double-stranded DNA, one strand shown; sample: in vitro; tested at: 10 and 20 nM; reference: negative control set to 0; reading: higher = stronger binding
# Target: Hepatocyte nuclear factor 3-alpha (Foxa1, Mus musculus, UniProt P35582, residues 1-468, full length assumed)
# Setting: whole designed probe, mean of two concentrations, ends assumed
# Shared flanks, not repeated: GTGAGCGGTGCCCATTGATGGGGAAC … TTTCACTGGGATCGTGGGGAC
# Residues (chain): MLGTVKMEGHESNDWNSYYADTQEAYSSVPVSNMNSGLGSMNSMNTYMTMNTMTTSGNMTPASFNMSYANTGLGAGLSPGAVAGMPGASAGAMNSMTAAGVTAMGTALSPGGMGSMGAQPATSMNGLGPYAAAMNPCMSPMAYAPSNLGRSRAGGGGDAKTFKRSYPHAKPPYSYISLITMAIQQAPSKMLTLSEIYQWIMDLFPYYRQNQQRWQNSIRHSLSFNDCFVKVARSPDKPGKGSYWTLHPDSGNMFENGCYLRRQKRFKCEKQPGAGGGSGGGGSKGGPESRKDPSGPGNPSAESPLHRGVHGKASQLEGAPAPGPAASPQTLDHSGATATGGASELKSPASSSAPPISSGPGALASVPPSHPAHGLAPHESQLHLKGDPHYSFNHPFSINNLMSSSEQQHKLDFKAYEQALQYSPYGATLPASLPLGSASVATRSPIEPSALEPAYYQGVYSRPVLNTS
Sequence,normalised bound fraction
ATGAAAGCAGCCCAGACGAGCTGTGAGCAGCTGGGCTGGATAATTGTGAAGGATTCATGCTTGTTGCTGTTACCCCCAGTGTTTGCAGTGGGTTGTTTGCTTTGACTTTTGTTGAACTGTTGACAAAAGCATTAGATACAAATGGGAACAAATAAAGTGGTGAGATGCCAGGAGGGCTTGGCAGGAGTAGTGG,0.36 ratio
AAGCATCTTGACTTTACTCTATTCTTTTCTCATACATTTTTTAGTATTTTCATTTTAAAGGTAAATAAAATATTTTGAAATATATTACCTGTGTAAACAAGAAAGCATGAAACTAGAAATAATTAATATTTTTTATTGAACATTTTATTTTCTGTGCACATTAAAGTCCATGATGATATTTATTTTTCTCTTT,0.457 ratio
GCCTGGAAGAAAGGGGCTGTTTTCCTTTTCACTATTATTATTTTAAACTTTGATGGGCTGCTGACGTCAGCAAATATGCTTGACGCCTGTAAAGCAAATAAGCCACATCACAAGCAGAAAGCCTGTGGGATTTTCTGGTGCCCTATTTCTAGAACCTTCCCTGTTCTGACCATTTGAAGGTGCTTATTTAGTC,0.308 ratio
TTATGTATACAGAATGACTGACTACAACTATGGCAAAAACAAACAACAACAACAACAACAACAACAACAACAAACCCTCAATAGAGGAAAAAGTAAACAAGAAACAGATCAAATTATTAACACAATGACATTTGAATGGTGACAAAATTGGTGATTTTAGTTTTTCTTTCCTTTTAAAATGTTTTTAAAGCAC,0.467 ratio
ACCAAGTTTCTGTAAAGATGGAAGAACAAGGTAACAGAAAGGAGAAATAACATGCCATGTTCCAAAGGGAAGTATTGTGGGCCCCTAAAGTACTATTTACTTTTCTACAGTGTGTCACTGCAAATATATATACACAAGTCAAGTTATGTGAGTCAACAACAGATTTAAGTTCCTAAGTTGGAGGGGAGAGCCC,0.473 ratio
ATCTTCCCCCTCTTCCTTGCCCCACCAGCTCACCTTCCCGGGTTATTTGCACAAAGGAAAATAAATAAAGCCGGCATTCGTTAACCCTCTTCACGCGCATACTGCTGTTTGCTCTGCATGAATCATGGTCCTTACGCGACGCCAGGCTCCGGGAGAGCAAAGCACCGTGTCAGGCGCATGATCCGGGGTGGCC,0.372 ratio
CAAGTTTGTGGTCCAGGAGCAACAGGTTATGCCATACAGCCTAGGTGTGTAGTAGGCTACACACCGTCTATGTTTGTGTTGTACACTCTTTGTGCAAACATTGTTGATGAAATCTTCTCACCATGACTCATGAACATACCCCTGTTGTTAAGCGATACATGACTGTACTTTTTTTAAAAAGTCCAAGGATATA,0.425 ratio
AGATTGCTTTGTGATTGTTTTGCCAGATTTTGCTTTCACCCACAAAAACACTAAGCTCTGCCAACCAGTTCGGCCATTTTGTAAGTTAGCAAAATAAACACTAAAGTGAAATGGCGGCTTTTGGGCGGGGCTCCCACAGGCTGGCTCCTTTTAAGTGGAATGTTGCTGTGCTGCCCTCTTGTGGCCATTTGGG,0.255 ratio

# Series 2 — technique: DHFR PCA, deep sequencing; sample: yeast; together with: (+)-ABA 58 µM; reference: wild-type fitted maximum; reading: higher = stronger binding
# Target: ABI1, truncated, D143A, DHFR fusion (Arabidopsis thaliana)
# Setting: methotrexate growth selection, single substitutions
# Parent: PYL1, truncated, DHFR fusion (Arabidopsis thaliana); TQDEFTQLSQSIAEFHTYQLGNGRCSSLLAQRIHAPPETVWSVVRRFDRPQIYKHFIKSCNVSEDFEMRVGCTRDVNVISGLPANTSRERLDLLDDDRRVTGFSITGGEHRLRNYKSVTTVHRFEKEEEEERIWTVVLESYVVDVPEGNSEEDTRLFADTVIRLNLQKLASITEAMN; partner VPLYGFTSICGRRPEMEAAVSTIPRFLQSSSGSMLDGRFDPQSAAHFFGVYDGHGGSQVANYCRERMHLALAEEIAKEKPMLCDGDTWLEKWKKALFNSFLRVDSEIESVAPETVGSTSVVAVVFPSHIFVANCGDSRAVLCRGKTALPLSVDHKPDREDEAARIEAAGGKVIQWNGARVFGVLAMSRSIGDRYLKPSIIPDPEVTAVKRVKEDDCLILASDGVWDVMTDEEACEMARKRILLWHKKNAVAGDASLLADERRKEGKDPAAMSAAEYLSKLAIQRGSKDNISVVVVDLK
Substitution,relative binding score [%]
R123G,93.2
W41I,14.2
G23N,88.7
F157L,73.5
S150K,59.8
V62I,78.4
C25N,-34.1
V62K,25.1
E128W,76.9
T154G,2.94
Q167I,67.9
R132D,103
V40C,31.6
D95T,8.56
V121Q,-6.83
D95C,64
L93M,76.6
G71W,4.79

# Series 3 — target: CREB5, bZIP domain (human); technique: DHFR protein complementation; sample: yeast; reference: wild-type JUN-FOS pair; reading: higher = stronger binding
# Setting: single substitutions, most at no-binding floor
# Parent: JUN, bZIP domain (human); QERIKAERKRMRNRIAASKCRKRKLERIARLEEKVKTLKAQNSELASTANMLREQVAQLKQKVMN; partner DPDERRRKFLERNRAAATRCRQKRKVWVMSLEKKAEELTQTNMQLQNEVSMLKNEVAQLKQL
Substitution,binding fitness
Q55D,-0.878 natural log
L31N,-1.23 natural log
A46C,-0.438 natural log
R53A,-0.936 natural log
M51R,-0.264 natural log
K39W,-0.758 natural log
E33M,-0.403 natural log
T48I,-0.34 natural log
T48R,-0.368 natural log
V35P,-1.4 natural log
Q58G,-0.463 natural log
K39V,-0.326 natural log
A49M,-0.806 natural log
A49S,-0.86 natural log
A49Q,-1.11 natural log
Q41E,-0.297 natural log
Q55C,-0.576 natural log
L45Y,-1.23 natural log

# Series 4 — technique: protein-binding microarray; molecule type: double-stranded DNA, one strand shown; sample: in vitro; tested at: 940 nM top; setting: 60-bp whole probe; together with: salmon DNA 0.4 mg/ml; reference: random background probes; reading: higher = stronger binding; shared flanks, not repeated: GCCTAGCAC … GTCTTGATTCGCTTGACGCTGCTG
# Target: Interferon regulatory factor 5, full length, phosphomimetic (IRF5, Homo sapiens, UniProt Q13568-2, residues 1-514, S451D/S453D/S456D/S462D)
Sequence,fitted relative affinity [z-score]
GACGAACTGAAACTGGAGACGTGCTAG,0.536
TTAGGTTCCCTTTACCTTTAGTGCTAG,0.5
TCATATATTATATATACAACTGTGCTA,0.372
TTAGATATCGGGACTGCATTAGTGCTA,0.0601
TTAGGTATCAGTCTCGATTAGTGCTAG,5.19
TTAGGACTGCTTCTTCTTTAGTGCTAG,0.00111
TTAGGACTGGACTTTCTGTTAGTGCTA,0.603
TTAGGTCTCGTTCTCCTTTAGTGCTAG,2.57
TTAGGTCTCCTACTGCTTTGGTGCTAG,0.00411
TGTTTTACAGGTTCTCTTTTAGTGCTA,0.304
GACGATATGAGTTTCGAGACGTGCTAG,3.38
GACGATATCGGGCATCGAGACGTGCTA,-0.138
GGCGAACTGAGTATCGAGACGTGCTAG,1.3
GACGGTATCCTTCTCCTGGCGTGCTAG,0.852
TTGGGTATCCTTCTCCTTTAGTGCTAG,0.724
TTCGGTTTCGGTTTCGGTTAGTGCTAG,17
TCAGCTGTTTTTCTCACCACGTGCTAG,0.9
TTAGAACTGAGGTTTCGATTAGTGCTA,4.28
GACGAACTGAGTTTCGAGCCGTGCTAG,2.61
TTAGGTCTCGGTATCCGTTAGTGCTAG,4.98
TTAGGACTGGAAACTGGGTTAGTGCTA,-0.544
GACGGTATCCTACTGCTGAAGTGCTAG,-0.148
GAAGGTCTCGGTCTCGGGACGTGCTAG,2.87
TCAGTTTTCAGCTGTTTTACTGTGCTA,0.467
GACGGTTTAGGACTGGGGACGTGCTAG,0.12

# Series 5 — technique: RNAcompete; molecule type: RNA; sample: in vitro; tested at: 20 nM; setting: 7-mer, probes averaged, single round; reference: mean of 7-mers; reading: higher = stronger binding
# Target: PABPC1L2, full length, GST fusion (mouse, UniProt A0ABA7IW68)
# Residues (chain): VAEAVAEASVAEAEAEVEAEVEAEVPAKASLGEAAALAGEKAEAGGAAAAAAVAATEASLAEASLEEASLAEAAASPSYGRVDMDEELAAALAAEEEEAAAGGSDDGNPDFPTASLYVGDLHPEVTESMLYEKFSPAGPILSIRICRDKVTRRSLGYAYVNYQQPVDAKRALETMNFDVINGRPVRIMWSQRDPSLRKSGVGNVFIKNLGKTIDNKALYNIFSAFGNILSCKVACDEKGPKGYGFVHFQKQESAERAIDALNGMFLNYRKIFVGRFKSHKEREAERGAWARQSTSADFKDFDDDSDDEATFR
Sequence,7-mer Z-score
AAGGAGA,0.427
UCGCUCA,-0.269
GAGGGUA,0.0968
CCGAUCA,-0.166
GACUCAA,-0.0826
GGUGCAU,0.12
AAUUAGG,0.488
UCCGGGA,-0.0355
UGCGGUG,-0.0373
GCGCCGU,-0.349
CAUGACC,0.00254
UCCAGGG,-0.0554
GAUGACU,-0.26
UGAUUGC,-0.177
GCUGUGA,-0.146
GUUGGGU,-0.115
UGCAAGG,0.153
UGCCUGG,-0.186
CUCAAGG,-0.104
CUUUGGA,-0.213
AGGAUUU,-0.113
UCGGAGU,-0.211
ACAUGCA,0.191
CGAUGAC,-0.148
UGAGUUG,-0.324

# Series 6 — target: CCNA2, cyclin fold, Cln2 fusion (human); technique: yeast growth competition, sequencing; sample: yeast; setting: strong parent motif; reference: not given; reading: higher = stronger binding
# Parent: BRCA2 docking peptide (human); PSIKRNLLNEFDR; partner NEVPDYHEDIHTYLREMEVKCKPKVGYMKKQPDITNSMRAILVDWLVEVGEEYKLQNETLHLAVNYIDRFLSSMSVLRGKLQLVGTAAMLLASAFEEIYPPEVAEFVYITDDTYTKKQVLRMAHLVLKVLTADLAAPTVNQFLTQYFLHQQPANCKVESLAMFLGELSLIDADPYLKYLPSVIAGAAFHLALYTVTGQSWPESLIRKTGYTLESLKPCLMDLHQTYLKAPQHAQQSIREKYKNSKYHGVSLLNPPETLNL
Substitution,normalised enrichment score
PSGKRNLLNEFDR [I3G],3.79
PSIKRNLLNEFDC [R13C],3.79
PSIKRDLLNEFDR [N6D],2.51
PSIKRNLLNERDR [F11R],1.18
PSIKRNLLNEFER [D12E],5.23
PSIKRNLLNEGDR [F11G],2.14
PSIKRNLKNEFDR [L8K],3.12
PMIKRNLLNEFDR [S2M],4.58
PSIKRNLLNEWDR [F11W],0.676
PQIKRNLLNEFDR [S2Q],4.95
PSCKRNLLNEFDR [I3C],6.69
PYIKRNLLNEFDR [S2Y],4.75
PSIKRNLLNEFDY [R13Y],4.24
PSVKRNLLNEFDR [I3V],6.08
PSIKRNLLNEFDG [R13G],5.02
PSIGRNLLNEFDR [K4G],1.79
FSIKRNLLNEFDR [P1F],5.14
PHIKRNLLNEFDR [S2H],4.27
PSIVRNLLNEFDR [K4V],4.66
PSIERNLLNEFDR [K4E],0.572
PGIKRNLLNEFDR [S2G],4.83
PSIKRNLLNEFDS [R13S],5.39
PSIKRNCLNEFDR [L7C],0.101
PSIKRNLLNPFDR [E10P],1.68
PSIKRNLLNEFDQ [R13Q],4.76

# For quick reference, copied from above (series 6):
Substitution,normalised enrichment score
PSIKRDLLNEFDR [N6D],2.51
PSIKRNLLNERDR [F11R],1.18
PSIKRNLLNEFER [D12E],5.23
PSIKRNLLNEGDR [F11G],2.14
PSIKRNLKNEFDR [L8K],3.12
PMIKRNLLNEFDR [S2M],4.58
PSIKRNLLNEWDR [F11W],0.676
PQIKRNLLNEFDR [S2Q],4.95
PSCKRNLLNEFDR [I3C],6.69
PYIKRNLLNEFDR [S2Y],4.75
PSIKRNLLNEFDY [R13Y],4.24
PSVKRNLLNEFDR [I3V],6.08
PSIKRNLLNEFDG [R13G],5.02
PSIGRNLLNEFDR [K4G],1.79
FSIKRNLLNEFDR [P1F],5.14
PHIKRNLLNEFDR [S2H],4.27
PSIVRNLLNEFDR [K4V],4.66
PSIERNLLNEFDR [K4E],0.572
PGIKRNLLNEFDR [S2G],4.83
